Measured values gathered from unrelated publications.
Every numbered part comes from another study and shows a few of its results, in no order. Positions count from the first letter of the parent shown.

Study 1 — method: protein-binding microarray; molecule type: double-stranded DNA, one strand shown; matrix: in vitro; concentration: 0.8 µM; notes: whole 60-bp probe, no competitor; direction: higher = stronger binding; all sequences stand within: … GTCTTGATTCGCTTGACGCTGCTG
Target: Centromere-binding protein 1, full length, N-terminal tag (CBF1, Saccharomyces cerevisiae, UniProt P17106, residues 1-351)
Sequence of UniProt P17106 (whole entry, looked up): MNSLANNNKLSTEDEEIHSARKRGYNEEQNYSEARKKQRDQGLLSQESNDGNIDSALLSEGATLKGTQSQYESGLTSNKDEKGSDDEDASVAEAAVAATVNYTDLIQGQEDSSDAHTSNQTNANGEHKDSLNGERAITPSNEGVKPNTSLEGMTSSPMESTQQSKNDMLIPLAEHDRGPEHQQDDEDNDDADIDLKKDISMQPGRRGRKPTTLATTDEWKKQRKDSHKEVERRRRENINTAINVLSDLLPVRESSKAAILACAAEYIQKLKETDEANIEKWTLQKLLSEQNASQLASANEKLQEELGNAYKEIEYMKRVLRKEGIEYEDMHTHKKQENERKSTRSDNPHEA
Strand | fluorescence intensity
CTAAGAAAAAAGGGCCACGGGATTTTTTTTTCGTTC | 984 a.u.
CTACGCTTAGGCATAATGGTGGTGCATTCTTTTTTC | 524 a.u.
GAAACAGGTTTCCTTCATCTCCTGTATATGGCCTAG | 475 a.u.
CTATATTACACGTGATTTAATATATCCTGTTTTTTC | 12800 a.u.
GAACGTAAAGAACATCAGACCAGAAAATTTTAATAG | 536 a.u.
TGTACGAAGCTATGGCACATGTGTATAGTAGTTAGG | 878 a.u.
GAAGTTATTGTGGATGCTGATGGCCGTGTATGGTAG | 525 a.u.
CTAGCTATTACCCGCTCCGTGATTTTGGTCGTTTTC | 566 a.u.
GAACACGACCAGTCGCAGGTGAGAGTCTTGGAATAG | 506 a.u.
TGTACGAAGCTATTGCGCGTGCATATAGTAGTTAGG | 661 a.u.
GAATTCATTTACTGTCACGGACTACTTTCATCATAG | 815 a.u.
GAAGAAAAGTAGGAATTCGTGATTGCTAGTATTTAG | 496 a.u.
GAAGTGCCAAAAACGGACGTCACAAATTACTGCTAG | 540 a.u.
CTATTATCTTGGCAAAACGTGGGGCTGGAACTTTTC | 616 a.u.
CTACCCTACCGTCATCATATGAAATATCAATCTTTC | 538 a.u.
CTATGCCTCCGCTATACCGTGATGAAGGTTAATTTC | 570 a.u.
GAAGCAAGACACCATCTGATGGGTTGAAAAGAATAG | 530 a.u.
TGTACGAAGCTATACAAACACGTTATAGTAGTTAGG | 581 a.u.
GAAGTAAAGCACGACCACGTATGGATTAAGGACTAG | 542 a.u.
CCTAACTACTATAGTCACGGGACATAGCTTCGTACA | 4350 a.u.
CTACATCAACATTCTGTCACCTTGTTGATGCACTTC | 562 a.u.
GAAAACACCAAAAATCACGTTTTCAAAATATGTTAG | 1570 a.u.
CTAAATGATTCGTATCACATGTTTTTCTATCGTTTC | 2540 a.u.
GAATACAGAATAATGCACACGTATAAAGTACCATAG | 520 a.u.
TGTACGAAGCTATTATACGTGTTTATAGTAGTTAGG | 507 a.u.

Study 2 — method: RNA Bind-n-Seq; molecule type: RNA; matrix: in vitro; concentration: 1 µM; notes: whole 134-nt RNA, ends assumed; together with: 150 mM KCl; reference: input library; direction: higher = stronger binding
Target: Ras GTPase-activating protein-binding protein 1, RRM domain (G3BP1, Homo sapiens, UniProt Q13283)
Sequence of UniProt Q13283 (whole entry, looked up): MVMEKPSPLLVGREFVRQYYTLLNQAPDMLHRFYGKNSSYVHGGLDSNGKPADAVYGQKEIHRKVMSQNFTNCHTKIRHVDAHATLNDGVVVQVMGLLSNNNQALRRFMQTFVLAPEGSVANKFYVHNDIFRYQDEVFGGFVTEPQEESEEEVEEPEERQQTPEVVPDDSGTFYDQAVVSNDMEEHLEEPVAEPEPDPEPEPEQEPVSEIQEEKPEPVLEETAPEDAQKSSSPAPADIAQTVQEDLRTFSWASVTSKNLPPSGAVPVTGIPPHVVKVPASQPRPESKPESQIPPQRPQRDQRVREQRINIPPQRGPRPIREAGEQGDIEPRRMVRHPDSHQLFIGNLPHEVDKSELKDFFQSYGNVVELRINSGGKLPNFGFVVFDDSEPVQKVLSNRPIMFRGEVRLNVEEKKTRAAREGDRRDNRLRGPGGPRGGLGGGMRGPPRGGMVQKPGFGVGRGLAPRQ
All sequences stand within: GGGAGUUCUACAGUCCGACGAUC … UGGAAUUCUCGGGUGUCAAGG
Strand | log2 enrichment
AGUCCUGUGCUACACAUCGUAUGUACCGAAUCGGGUUUUUUUGGGUGGGUUUUUGGGAAAGUAUUAUGUUACGCCGUUCGGAUCUGCACU | 0.535
UCCUGUGCUACACAUCGUAUGUACCGAAUCAAACCCCCAAAUUUUUUUAAAUUUUUAAAAAAGUAUUAUGUUACGCCGUUCGGAUCUGCA | -0.521
AAGUCCUGUGCUACACAUCGUAUGUACCGAAUCGGUUUUUUUGGUUUUUGGAAAGGAAAGUAUUAUGUUACGCCGUUCGGAUCUGCACUU | -0.176
UUCACCAGUUUCACUGUGAGCCUCAACGAGCUGGAGACAGGCAUGGAGAAGACCCUGCCACCCACGGACUGCCGCCUGCGCCCUGACAUC | -0.00598
AGUCCUGUGCUACACAUCGUAUGUACCGAAUCGGGGAAAAGGGAAAAGGGGAAAAGGAAAGUAUUAUGUUACGCCGUUCGGAUCUGCACU | -0.0641
AGUCCUGUGCUACACAUCGUAUGUACCGAAUCGGCCCCCGGGCCCCCGGCCCCCGGGGAAAGUAUUAUGUUACGCCGUUCGGAUCUGCAC | -0.545
UGGCCCUGGUGGCAUCCGGGGAGGAAGAGGUGGCCUCAUGGAUCGUGGUGGUCCCGGUGGAAUGUUCAGAGGUGGCCGUGGUGGAGACAG | 0.953
CAAGUCCUGUGCUACACAUCGUAUGUACCGAAUCGGGUGGGAAAAAGGGAAAGGGAAAGUAUUAUGUUACGCCGUUCGGAUCUGCACUUC | 0.985
GCAGGAAGUAAAAACAAAUGGAAAUGCUUCGGAUAGUGGCAGGGGUGGGGGUUGCUAAGGAAAGGGUGGGAUGUGAGUGGGUAAAGAGUU | 1.35
UAACUUUAGAGGAGGAUCUGAUGGAUAUGGCAGUGGACGUGGAUUUGCGGAUGGCUAUAAUGGGUAUGGAGGAGGACCUGGAGGUGGCAA | -0.565
CAAGUCCUGUGCUACACAUCGUAUGUACCGAAUCGGUUUUUGGUUUGGAAAAAGGAAAGUAUUAUGUUACGCCGUUCGGAUCUGCACUUC | -0.295
CAAGUCCUGUGCUACACAUCGUAUGUACCGAAUCGGUUUGGGGUUUGGUUUGGGGAAAGUAUUAUGUUACGCCGUUCGGAUCUGCACUUC | -0.275
CCUGUGCUACACAUCGUAUGUACCGAAUCGGGGAAAAAAGGGGAAAAAAGGGAAAAAAGGAAAGUAUUAUGUUACGCCGUUCGGAUCUGC | -0.135
CUGUGCUACACAUCGUAUGUACCGAAUCGGGGUUUUUUUGGGUUUUUUUGGUUUUUUUGGGAAAGUAUUAUGUUACGCCGUUCGGAUCUG | -0.272

Study 3 — organism: Saccharomyces cerevisiae; read-out: cell growth; method: competitive growth deep sequencing; molecule type: peptide; notes: peptide tiling library; together with: cyclin F-Cln2 fusion; direction: direction not given
Molecule | enrichment score
FREFEVEKQTAEETGL | 0.101
SGYLTDENEVGFRG | 0.0798
DSGFCLDSPGPLDSKE | 0.77
IFNKPECGRVQRAIFQ | 0.256
NCKKRRALDFLSRLPL | -0.0336
EAAPPTQEAQGETEPT | 0.669
IPDRSTKPVVFSPT | 0.988
HRRRLLFACSPPPASQ | 2.57
ALTMEALEDPSPELME | 0.72
RRRIKLPESDSSED | 2.28
VRDLSYRLVFLACCVA | 0.95
NLEPNAEFDKRTEFIT | 0.681
RRRRLLFWDKETQI | 0.973

Study 4 — method: protein binding microarray; molecule type: double-stranded DNA, one strand shown; matrix: in vitro; concentration: not given; reference: not given; direction: higher = stronger binding
Target: Histone acetyltransferase KAT6A, winged helix 1, GST fusion (KAT6A, Homo sapiens, UniProt Q92794, residues 1-85)
Notes: 8-mer, flanks averaged, mean of 2 arrays, mostly near background
Construct (chain): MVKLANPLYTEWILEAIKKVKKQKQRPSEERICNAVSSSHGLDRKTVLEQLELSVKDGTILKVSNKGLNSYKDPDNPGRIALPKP
Strand | E-score
GAGTTTAA | -0.226
ACTCGGAA | -0.0904
GTAAGCGA | -0.0971
AACACCCT | -0.127
CCCGAAAC | -0.0201
AGCGATCG | 0.0374
AAAGGGAC | -0.0334
AAGGATCG | -0.0348
ATTTGGAC | -0.131
AAATCCGG | 0.178
AACCGCAG | 0.0423
ATGACGAA | -0.101
CTTCAGGA | -0.109
CATGCGGA | 0.171
AATATGCA | -0.119
CCAAGAAC | -0.189
TACGCTAA | 0.259
ATCTCTCA | -0.0799
AGAATCGA | -0.103
CGTCTTAG | 0.0155
CAAACAGC | -0.135

Study 5 — target: JUN, bZIP domain (human); method: DHFR protein complementation; matrix: yeast; reference: wild-type JUN-FOS pair; direction: higher = stronger binding
Notes: single substitutions, most at no-binding floor
Starting sequence: JUN, bZIP domain (human); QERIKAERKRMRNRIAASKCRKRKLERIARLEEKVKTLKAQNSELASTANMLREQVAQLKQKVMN; partner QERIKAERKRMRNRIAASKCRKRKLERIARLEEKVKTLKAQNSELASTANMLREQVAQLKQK
Variant | binding fitness
A46N | -0.235 natural log
A29K | -0.201 natural log
E54V | -0.578 natural log
K39I | -0.233 natural log
L52S | -1.17 natural log
R30E | -0.0833 natural log
A29F | -0.437 natural log
E44L | -0.369 natural log
E32G | -1.09 natural log
A49S | -0.587 natural log
A49F | -0.211 natural log
V56R | -1.17 natural log
A49N | -0.0391 natural log
K36L | -0.353 natural log
E44W | -0.876 natural log
K39F | -0.864 natural log
T48V | -0.226 natural log
M51V | -0.28 natural log
T48F | -0.703 natural log
R30C | -0.297 natural log
A40R | -0.181 natural log
V56S | -1.17 natural log

Study 6 — method: universal PBM; molecule type: double-stranded DNA, one strand shown; matrix: in vitro; concentration: 600 nM; direction: higher = stronger binding
Target: Sal-like protein 4, full length isoform A (SALL4, Homo sapiens, UniProt Q9UJQ4, residues 1-1053)
Sequence of UniProt Q9UJQ4 (whole entry, looked up): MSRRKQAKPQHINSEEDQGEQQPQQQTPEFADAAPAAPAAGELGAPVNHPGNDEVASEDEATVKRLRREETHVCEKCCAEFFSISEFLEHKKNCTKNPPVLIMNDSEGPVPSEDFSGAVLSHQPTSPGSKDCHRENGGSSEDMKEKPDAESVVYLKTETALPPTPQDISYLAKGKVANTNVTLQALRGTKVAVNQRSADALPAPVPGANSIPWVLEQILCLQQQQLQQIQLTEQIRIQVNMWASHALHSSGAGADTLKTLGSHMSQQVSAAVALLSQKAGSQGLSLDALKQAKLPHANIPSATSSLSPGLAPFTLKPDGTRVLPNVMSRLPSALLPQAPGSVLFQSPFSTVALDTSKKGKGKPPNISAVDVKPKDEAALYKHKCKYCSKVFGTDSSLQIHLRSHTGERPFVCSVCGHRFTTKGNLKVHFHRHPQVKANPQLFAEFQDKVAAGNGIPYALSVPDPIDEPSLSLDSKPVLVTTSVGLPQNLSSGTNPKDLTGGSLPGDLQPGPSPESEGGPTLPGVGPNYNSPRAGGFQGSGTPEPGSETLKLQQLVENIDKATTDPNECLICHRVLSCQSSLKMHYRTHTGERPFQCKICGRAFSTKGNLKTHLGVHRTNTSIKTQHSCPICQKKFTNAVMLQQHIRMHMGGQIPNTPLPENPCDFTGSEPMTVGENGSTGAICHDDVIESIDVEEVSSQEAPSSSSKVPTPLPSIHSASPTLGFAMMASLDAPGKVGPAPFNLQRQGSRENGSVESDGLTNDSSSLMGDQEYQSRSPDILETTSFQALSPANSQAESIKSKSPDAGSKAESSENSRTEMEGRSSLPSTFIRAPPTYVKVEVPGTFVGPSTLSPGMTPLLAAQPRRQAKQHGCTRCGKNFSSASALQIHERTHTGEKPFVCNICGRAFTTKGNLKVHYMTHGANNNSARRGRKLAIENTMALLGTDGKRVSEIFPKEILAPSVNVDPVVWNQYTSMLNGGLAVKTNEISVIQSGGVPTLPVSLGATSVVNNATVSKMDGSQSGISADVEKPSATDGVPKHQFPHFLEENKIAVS
Notes: 8-mer, flanks averaged, mean of replicates
Strand | E-score
GAGCTGCC | -0.332
ACATACCG | 0.0372
ATGAATCG | 0.032
CGTCTGTC | -0.255
CATCGCCG | -0.175
ATGAAGGG | -0.0822
AGTGTTGC | 0.175
GGACCCAC | -0.265
GTAAAGCA | 0.152
GGCCAGAA | -0.188
AAGTCCGG | -0.199
TAGCCGAA | -0.103
CCAGTAAC | -0.0676
CATGGTCC | -0.29
TCTAGGAA | 0.139
ATCGGTAA | 0.168
ACTATCTC | 0.128
ATTCTAAA | 0.273
ATCTGATC | 0.102
